Results pooled from the literature.
Lines come from different studies, so protocols differ. ± gives the spread as reported.

Cc1cc(C)n(CCN(CCN)CCCCCCNC(=O)[C@@H](N)Cc2c[nH]cn2)n1.[99Tc+].[C-]#[O+].[C-]#[O+].[C-]#[O+]
tissue uptake (BALB/c nude mice A549 xenograft, kidney; intravenous, 15 min): 15.5 ± 0.9 %ID/g

COc1cccc(OC)c1-c1cc(C(=O)NC2(C(=O)O)C3CC4CC(C3)CC2C4)nn1-c1ccc(C(=O)N(C)CCCN(C)CCCN(C)C(=O)[C@H](CCCCNC(=O)[C@H](CC(C)C)NC(=O)C2OC2C(=O)O)NC(=O)CN2CCN(CC(=O)[O-])CCN(CC(=O)[O-])CCN(CC(=O)[O-])CC2)cc1C(C)C.[177Lu+3] (mixture of isomers)
tissue uptake (mouse, HT-29 xenograft, heart; 24 h post injection): 0.3 %ID/g

CCCC[C@H](NC(=O)CNC(=O)CNC(=O)[C@H](CCCCNC(=O)[C@H](CC(=O)O)NC(=O)C(C)c1ccc(CC(C)C)cc1)NC(=O)CN1CCN(CC(=O)O)CCN(CC(=O)O)CCN(CC(=O)O)CC1)C(=O)N[C@H]1CC(=O)NCCCC[C@@H](C(N)=O)NC(=O)[C@H](Cc2c[nH]c3ccccc23)NC(=O)[C@H](CCCNC(=N)N)NC(=O)[C@@H](Cc2ccccc2)NC(=O)[C@H](Cc2c[nH]cn2)NC1=O (stereo partly shown) [lutetium-177 labelled]
tissue uptake (C57 mouse, bone; intravenous, 2 h, with: 10 µg NDP-MSH co-injection): 0.45 ± 0.17 %ID/g

N#C[C@@H]1CC(F)(F)CN1C(=O)CNC(=O)c1ccnc2c(NC(=O)[C@H](CCCCNC(=O)CCOCCOCCOCCOCCOCCOCCNC(=O)CN3CCN(CC(=O)[O-])CCN(CC(=O)[O-])CCN(CC(=O)[O-])CC3)NC(=O)CCCc3ccc(I)cc3)cccc12.[177Lu+3]
tissue uptake (mouse, U-87 MG tumour xenograft, spleen; 96 h): 0.58 ± 0.08 %ID/g

[123I]c1ccc2nc(-c3ccc(-n4ccnn4)nc3)cn2c1
tissue uptake (male Wistar rat, large intestine; intravenous, 4 MBq, 6 h): 11.4 ± 0.942 %ID/g

N#C[C@@H]1CC(F)(F)CN1C(=O)CNC(=O)c1ccnc2c(NC(=O)CCOCCOCCOCCOCCOCCOCCNC(=O)[C@H](CCCCNC(=O)CN3CCN(CC(=O)[O-])CCN(CC(=O)[O-])CCN(CC(=O)[O-])CC3)NC(=O)CCCc3ccc(I)cc3)cccc12.[177Lu+3]
tissue uptake (mouse, U-87 MG tumour xenograft, lung; 1 h): 5.38 ± 1.08 %ID/g

COc1cccc(OC)c1-c1cc(C(=O)NC2(C(=O)O)C3CC4CC(C3)CC2C4)nn1-c1ccc(C(=O)NCCNC(=O)[C@H](CCCCNC(=O)[C@H](CC(C)C)NC(=O)C2OC2C(=O)O)NC(=O)CN2CCN(CC(=O)[O-])CCN(CC(=O)[O-])CCN(CC(=O)[O-])CC2)cc1C(C)C.[177Lu+3] (mixture of isomers)
tissue uptake (mouse, HT-29 xenograft, kidney; 24 h post injection): 6.2 %ID/g

COc1ccc(Nc2nc(Nc3ccc(OCCOCC[18F])cc3)ncc2Br)cc1
tissue uptake (ICR mice, S180 tumour, intestine; intravenous, 370 kBq, 120 min): 5.18 ± 0.02 %ID

CC(C)Cc1ccc(C(C)C(=O)N[C@@H](CCCCNC(=O)CCOCCOCCOCCOCCOCCOCCNC(=O)CN2CCN(CC(=O)[O-])CCN(CC(=O)[O-])CCN(CC(=O)[O-])CC2)C(=O)Nc2cccc3c(C(=O)NCC(=O)N4CC(F)(F)C[C@H]4C#N)ccnc23)cc1.[177Lu+3] (stereo partly shown)
tissue uptake (mouse, U-87 MG tumour xenograft, lung; 48 h): 0.42 ± 0.09 %ID/g

COc1cccc(OC)c1-c1cc(C(=O)NC2(C(=O)O)C3CC4CC(C3)CC2C4)nn1-c1ccc(C(=O)N(C)CCOCCOCCN(C)C(=O)[C@H](CCCCNC(=O)[C@H](CC(C)C)NC(=O)C2OC2C(=O)O)NC(=O)CN2CCN(CC(=O)[O-])CCN(CC(=O)[O-])CCN(CC(=O)[O-])CC2)cc1C(C)C.[177Lu+3] (mixture of isomers)
tissue uptake (mouse, HT-29 xenograft, liver; 24 h post injection): 1.18 %ID/g

N#C[C@@H]1CC(F)(F)CN1C(=O)CNC(=O)c1ccnc2c(NC(=O)[C@@H](N)CCCCNC(=O)CCOCCOCCOCCOCCOCCOCCNC(=O)CN3CCN(CC(=O)[O-])CCN(CC(=O)[O-])CCN(CC(=O)[O-])CC3)cccc12.[177Lu+3]
tissue uptake (mouse, U-87 MG tumour xenograft, lung; 1 h): 0.89 ± 0.01 %ID/g

O=C(NCC1OC2CCC=CCCC2O1)c1ccc([18F])nc1 (stereo not shown)
tissue uptake (healthy female BALB/c nude mice, blood; intravenous, 7.4 MBq per mouse, 60 min): 1.3 ± 0.2 %ID/g

O=C(O)CCCOc1ccc([18F])cc1-c1cc(-c2ccccc2C(F)(F)F)n(-c2ccccc2)n1
tissue uptake (mouse, bone; intravenous, dose not given, 15 min): 1.71 ± 0.45 %ID/g

A few entries again:
CCCC[C@H](NC(=O)CNC(=O)CNC(=O)[C@H](CCCCNC(=O)[C@H](CC(=O)O)NC(=O)C(C)c1ccc(CC(C)C)cc1)NC(=O)CN1CCN(CC(=O)O)CCN(CC(=O)O)CCN(CC(=O)O)CC1)C(=O)N[C@H]1CC(=O)NCCCC[C@@H](C(N)=O)NC(=O)[C@H](Cc2c[nH]c3ccccc23)NC(=O)[C@H](CCCNC(=N)N)NC(=O)[C@@H](Cc2ccccc2)NC(=O)[C@H](Cc2c[nH]cn2)NC1=O (stereo partly shown) [lutetium-177 labelled]
tissue uptake (C57 mouse, bone; intravenous, 2 h, with: 10 µg NDP-MSH co-injection): 0.45 ± 0.17 %ID/g

COc1ccc(Nc2nc(Nc3ccc(OCCOCC[18F])cc3)ncc2Br)cc1
tissue uptake (ICR mice, S180 tumour, intestine; intravenous, 370 kBq, 120 min): 5.18 ± 0.02 %ID
